Measurements gathered from unrelated publications.
Each line is one published result; not all experiments were run side by side.

| SMILES | target | assay | system | setting | inhibition [%] |
| --- | --- | --- | --- | --- | --- |
| N#Cc1ccc(N2N=C3c4ccc(C(=O)O)cc4CCC3C2C2CCCC2)cc1Cl (stereo not drawn) | Histone-lysine N-methyltransferase SUV39H1 (SUV39H1, Homo sapiens, UniProt O43463) | enzyme activity, inhibitor |  | 10 µM | 3 |
| COc1ccc(F)cc1S(=O)(=O)Nc1cnc2c(c1)C(=O)NCCO2 | Na+/K+-ATPase | enzyme activity | heart | 10 µM | -15 |
| CS(C)(=O)=Nc1ccc(-c2ccc(-c3nc4cc(O[C@@H]5CO[C@H]6[C@@H]5OC[C@H]6O)[nH]c4cc3F)cc2)cc1 | Tyrosine-protein kinase FRK (FRK, Homo sapiens, UniProt P42685) | enzyme activity, inhibitor |  | 10 µM | -12 |
| O=C1c2ccccc2CCCN1CCCCN1CCN(c2cccc(Cl)c2Cl)CC1 | 5-hydroxytryptamine receptor 6 (HTR6, Homo sapiens, UniProt P50406) | radioligand binding |  | concentration not given, together with: [3H]LSD | 87.6 |
| CN[C@@H]1[C@H](O)[C@H](NC)[C@H]2O[C@]3(O)[C@H](O[C@@H]2[C@H]1O)O[C@H](C)C[C@H]3NC(=O)Cc1cc(Cl)ccn1 | D(3) dopamine receptor (DRD3, Homo sapiens, UniProt P35462) | ligand displacement, radioligand |  | 10 µM | -2 |
| CC(C)[C@H]1NC(=O)C[C@H]2/C=C/CCSSC[C@@H](NC1=O)C(=O)N[C@H](Cc1cccc3ccccc13)C(=O)NCC(=O)O2 | Tyrosine-protein kinase SYK (SYK, Homo sapiens, UniProt P43405) | enzyme activity, inhibitor |  | 10 µM | -9 |
| CS(=O)(=O)Nc1cccc(-c2csc3cnc(Nc4ccc(N5CCN(CCCCCOc6cccc7c6C(=O)N(C6CCC(=O)NC6=O)C7=O)CC5)cc4)nc23)c1 (stereo not drawn) | Mitogen-activated protein kinase kinase kinase kinase 5 (MAP4K5, Homo sapiens, UniProt Q9Y4K4) | probe labelling, inhibitor, KiNativ chemoproteomics | MOLT-4 | 1 µM | 1.21 |
| C[C@H](NCc1ccc(-c2ccc(C(F)(F)F)cc2)cc1)C(N)=O | Activin receptor type-1B (ACVR1B, Homo sapiens, UniProt P36896) | cell-free assay, competition with immobilised ligand |  | 1 µM | 5 |
| CN(/N=C/c1ccccc1C(=O)O)c1nc(-c2ccccc2Cl)cs1 | TRAF2 and NCK-interacting protein kinase (TNIK, Homo sapiens, UniProt Q9UKE5) | enzyme activity, inhibitor |  | 1 µM | -6.85 |
| CN(C)[C@H]1C[C@@]23CC[C@@]4(O2)C(=CC[C@]2(C)[C@@H](c5ccc6ccncc6c5)CC[C@H]24)C=C3[C@@H](O)[C@@H]1O | Protein-tyrosine kinase 2-beta (PTK2B, Homo sapiens, UniProt Q14289) | ATP probe labelling, inhibitor, KiNativ profiling |  | 1 µM | 8.8 |
| CCCCCCCCCCCCCCCCCC(=O)NC[C@H]1CC[C@H](C(=O)N[C@@H](CCC(=O)NCCCOCCOCCOCCCNC(=O)COCC(=O)N[C@@H](Cc2ccc(O)cc2)C(=O)NC(C)(Cc2ccccc2)C(=O)N[C@@H](CC(C)C)C(=O)N[C@@H](CCCC)C(=O)N[C@@H](CCCNC(=N)N)C(=O)N2CCC[C@H]2C(=O)N[C@@H](CCCNC(=N)NC)C(=O)N[C@@H](CC(N)=O)C(N)=O)C(=O)O)CC1 (stereo partly drawn) | Apelin receptor (APLNR, Homo sapiens, UniProt P35414) | antagonist, DiscoverX GPCR panel |  | 1 µM | 50 |
| N[C@H](C(=O)N1CCCC1)C1CCN(c2nccc3c(-c4ncc(Cl)cc4Cl)cccc23)CC1 | Androgen receptor (AR, Homo sapiens, UniProt P10275) | ligand displacement, radioligand |  | 10 µM | 5 |
| Cc1ccc2c(n1)c(-c1cccc(S(C)(=O)=O)c1)c(C)n2C/C(F)=C/CN | Type-1 angiotensin II receptor (AGTR1, Homo sapiens, UniProt P30556) | ligand displacement, radioligand |  | 10 µM | 1 |
| O=C(O)c1ccccc1/C=N/Nc1nc(-c2ccccc2Cl)cs1 | Casein kinase I isoform epsilon (CSNK1E, Homo sapiens, UniProt P49674) | kinase activity |  | 1 µM | 10.1 |
| O=C(CN1CN(c2ccccc2)C2(CCN(C(=O)c3cnc4[nH]ncc4c3)CC2)C1=O)NCC(F)(F)F | Cyclin-dependent kinase 8 (CDK8, Homo sapiens, UniProt P49336) | inhibitor |  | concentration not given | < 50 |
